Experimental data of several laboratories.
± marks the error that the study gave.

| SMILES | tested on | assay | system | conditions | scale | quantity | value |
| --- | --- | --- | --- | --- | --- | --- | --- |
| Nc1nc2cc(CC[C@H]3C[C@@H](n4ccc5c(N)ncnc54)[C@H](O)[C@@H]3O)ccc2cc1Br |  |  | NCI-H1048 xenograft, mouse | 10.0 mg/kg/day, day 28 |  | %ΔTGI | 104% |
| COC1OC(C)C(O)C(OC2OC(C)C(O)C(OC3OC(C)C(O)C(OC4OC(C)C(O)C(OC5OC(C)C(O)C(OC6OC(C)C(O)C(OC7OC(C)C(O)C(OC8OC(C)C(O)C(OC9OC(C)C(O)C(OS(=O)(=O)O)C9OS(=O)(=O)O)C8OS(=O)(=O)O)C7OS(=O)(=O)O)C6OS(=O)(=O)O)C5OS(=O)(=O)O)C4OS(=O)(=O)O)C3OS(=O)(=O)O)C2OS(=O)(=O)O)C1OS(=O)(=O)O (stereo not shown) |  |  | human plasma | 128 µg/mL |  | activated partial thromboplastin time | 40.9 ± 0.9 s |
| C[n+]1cc(/C=N/NC(=O)N/N=C/c2cc3ccccc3[n+](C)c2)cc2ccccc21 | 22CTA telomeric G4-DNA antiparallel | FRET melting |  | 1 µM, K10 buffer, DNA 0.2 µM, with: ds26 10 µM |  | ΔTm | 5.9 ± 1.6 °C |
| COC1OC(C)C(OC2OC(C)C(O)C(OC3OC(C)C(OC4OC(C)C(O)C(OS(=O)(=O)O)C4OS(=O)(=O)O)C(OS(=O)(=O)O)C3OS(=O)(=O)O)C2OS(=O)(=O)O)C(OS(=O)(=O)O)C1OS(=O)(=O)O (stereo not shown) |  |  | human plasma | 128 µg/mL |  | activated partial thromboplastin time | 46.1 ± 1.3 s |
| Nc1ncc(-c2cc(-c3cnn(CC(F)(F)F)c3)ncc2F)nc1C(=O)NC1CNCC(F)C1 (stereo not shown) | CDK5 | KINOMEscan |  | 1 µM | reference: DMSO control | remaining binding | 100% |
| O=C(N/N=C/c1ccc2c(ccc[n+]2Cc2ccccc2)c1)C(=O)N/N=C/c1ccc2c(ccc[n+]2Cc2ccccc2)c1 | 22CTA telomeric G4-DNA antiparallel | FRET melting |  | 1 µM, K10 buffer, DNA 0.2 µM |  | ΔTm | 9.3 ± 1.5 °C |
| COC1OC(C)C(OC2OC(C)C(OS(=O)(=O)O)C(OC3OC(C)C(OC4OC(C)C(OS(=O)(=O)O)C(OC5OC(C)C(OC6OC(C)C(OS(=O)(=O)O)C(OC7OC(C)C(OS(=O)(=O)O)C(OS(=O)(=O)O)C7O)C6O)C(OS(=O)(=O)O)C5O)C4O)C(OS(=O)(=O)O)C3O)C2O)C(OS(=O)(=O)O)C1O (stereo not shown) |  |  | human plasma | 128 µg/mL |  | activated partial thromboplastin time | 36.4 ± 0.4 s |
| c1ccc(CN2CCOCCOCCN(CCCCCCCCN3CCOCCOCCN(CCCCCCCCN4CCOCCOCCN(Cc5ccccc5)CCOCCOCC4)CCOCCOCC3)CCOCCOCC2)cc1 | Klebsiella pneumoniae | checkerboard | ATCC BAA-2146 | quarter MIC, with: tetracycline |  | FIC index | 0.5 |
| C=CC(=O)N1[C@@H](c2ccc3c(c2)OCO3)c2[nH]c3ccccc3c2C[C@H]1C(=O)N1CCN(C)CC1 | human cyclin E1 N112C-3xFLAG:CDK2 | co-IP with TMT proteomics, refers to: DDX5 |  | concentration not given, P17844 | reference: wild type DMSO | relative co-enrichment | 113% |
| C[n+]1ccc(/C=N/NC(=O)c2cccc(C(=O)N/N=C/c3cc[n+](C)cc3)c2)cc1 | 22CTA telomeric G4-DNA antiparallel | FRET melting |  | 1 µM, K10 buffer, DNA 0.2 µM |  | ΔTm | 1.9 ± 0.3 °C |
| COC1OC(C)C(OC2OC(C)C(OS(=O)(=O)O)C(OC3OC(C)C(OC4OC(C)C(OS(=O)(=O)O)C(OC5OC(C)C(OC6OC(C)C(OS(=O)(=O)O)C(OC7OC(C)C(OC8OC(C)C(OS(=O)(=O)O)C(OC9OC(C)C(OC%10OC(C)C(OS(=O)(=O)O)C(OS(=O)(=O)O)C%10O)C(OS(=O)(=O)O)C9O)C8O)C(OS(=O)(=O)O)C7O)C6O)C(OS(=O)(=O)O)C5O)C4O)C(OS(=O)(=O)O)C3O)C2O)C(OS(=O)(=O)O)C1O (stereo not shown) |  |  | human plasma | 128 µg/mL |  | activated partial thromboplastin time | 39.9 ± 0.4 s |
| c1ccc(-c2n[nH]cc2-c2ccnc3ccccc23)nc1 | STE11 (Candida albicans) | kinase binding, MIB/MS competition | Candida albicans lysate | 1 µM | reference: DMSO | log2 fold change | -0.2 |
| C=C(NC(=O)c1csc(-c2nc3c(cc2O)-c2nc(cs2)C(=O)NC(C(C)O)C(=O)NC(=C(C)OC)c2nc(cs2)C(=O)NC2c4nc(cs4)C(=O)NC(COC(=O)c4c5c6c(cccc6n4O)COC(=O)C(OC4CC(C)(O)C(N(C)C)C(C)O4)C2OC5)c2nc-3cs2)n1)C(N)=O (stereo not shown) | Streptococcus pneumoniae |  | -4, immunocompromised mice, lung infection | qd dosing |  | ED50 | 4.14 mg/kg |
| O=C(N/N=C/c1cc[n+](Cc2ccccc2)c2ccccc12)c1cc(C(=O)N/N=C/c2cc[n+](Cc3ccccc3)c3ccccc23)ncn1 | 22CTA telomeric G4-DNA antiparallel | FRET melting |  | 1 µM, K10 buffer, DNA 0.2 µM |  | ΔTm | 13.2 ± 0.7 °C |
| CO[C@@H]1[C@@H](OC(N)=O)[C@@H](O)[C@H](Oc2ccc3c(O)c(NC(=O)c4ccc(O)c(CC=C(C)C)c4)c(=O)oc3c2C)OC1(C)C | HCT-116 BRCA2-/- |  |  | 75 µM, replicate 2 |  | colony count | 29 |
| Cc1ncsc1-c1ccc(C(C)NC(=O)C2CC(O)CN2C(=O)C(NC(=O)CCCCCCCCCCN2CCCC(Nc3ncc(Cl)c(Nc4ccccc4S(=O)(=O)C(C)C)n3)C2)C(C)(C)C)cc1 (stereo not shown) | 22Rv1 | RNA-seq, refers to: SPTLC3 mRNA |  | concentration not given | reference: DMSO | log2 fold change | -2.12 |
| O=C(N/N=C/c1ccc2c(ccc[n+]2Cc2ccccc2)c1)c1ccc2ccc3ccc(C(=O)N/N=C/c4ccc5c(ccc[n+]5Cc5ccccc5)c4)nc3c2n1 | 22CTA telomeric G4-DNA antiparallel | FRET melting |  | 1 µM, K10 buffer, DNA 0.2 µM, with: ds26 10 µM |  | ΔTm | 20.7 ± 0.8 °C |
| COC1CN([C@H]2CC[C@H]([C@@]3(C)Oc4c(Cl)cc(C(=O)NCc5c(SC)cc(C)[nH]c5=O)c(C)c4O3)CC2)C1 |  | RNA-seq, refers to: mouse GCLC homolog | mouse, HT-1376 xenograft, whole blood | dose not given, PRC2 target gene | reference: vehicle | log2 fold change | 0.257 |
| O=C(N/N=C/c1cc[n+](Cc2ccccc2)c2ccccc12)C(=O)N/N=C/c1cc[n+](Cc2ccccc2)c2ccccc12 | 22CTA telomeric G4-DNA antiparallel | FRET melting |  | 1 µM, K10 buffer, DNA 0.2 µM, with: ds26 10 µM |  | ΔTm | 7.9 ± 0.5 °C |
| COC1OC(C)C(O)C(OC2OC(C)C(O)C(OC3OC(C)C(O)C(OC4OC(C)C(O)C(OC5OC(C)C(O)C(OC6OC(C)C(O)C(OS(=O)(=O)O)C6OS(=O)(=O)O)C5OS(=O)(=O)O)C4OS(=O)(=O)O)C3OS(=O)(=O)O)C2OS(=O)(=O)O)C1OS(=O)(=O)O (stereo not shown) |  |  | human plasma | 128 µg/mL |  | activated partial thromboplastin time | 37.4 ± 0.3 s |
| C[n+]1ccc(/C=N/NC(=O)c2cncc(C(=O)N/N=C/c3cc[n+](C)c4ccccc34)n2)c2ccccc21 | 22CTA telomeric G4-DNA antiparallel | FRET melting |  | 1 µM, K10 buffer, DNA 0.2 µM |  | ΔTm | 15.3 ± 0.4 °C |
| C=CC(=O)Nc1cccc(Cn2ncc3cnc(Nc4cnn(CCOC)c4)nc32)c1 | human JNK2 | KINOMEscan |  | 100 nM | reference: control | binding | 88% |

Repeated from above:
| SMILES | tested on | assay | system | conditions | scale | quantity | value |
| --- | --- | --- | --- | --- | --- | --- | --- |
| CO[C@@H]1[C@@H](OC(N)=O)[C@@H](O)[C@H](Oc2ccc3c(O)c(NC(=O)c4ccc(O)c(CC=C(C)C)c4)c(=O)oc3c2C)OC1(C)C | HCT-116 BRCA2-/- |  |  | 75 µM, replicate 2 |  | colony count | 29 |
| Cc1ncsc1-c1ccc(C(C)NC(=O)C2CC(O)CN2C(=O)C(NC(=O)CCCCCCCCCCN2CCCC(Nc3ncc(Cl)c(Nc4ccccc4S(=O)(=O)C(C)C)n3)C2)C(C)(C)C)cc1 (stereo not shown) | 22Rv1 | RNA-seq, refers to: SPTLC3 mRNA |  | concentration not given | reference: DMSO | log2 fold change | -2.12 |
| O=C(N/N=C/c1ccc2c(ccc[n+]2Cc2ccccc2)c1)c1ccc2ccc3ccc(C(=O)N/N=C/c4ccc5c(ccc[n+]5Cc5ccccc5)c4)nc3c2n1 | 22CTA telomeric G4-DNA antiparallel | FRET melting |  | 1 µM, K10 buffer, DNA 0.2 µM, with: ds26 10 µM |  | ΔTm | 20.7 ± 0.8 °C |
